Measurements of several laboratories.
Parts stem from different laboratories: compare values within a part only. Substitutions count along the parent as printed.
Sequence of UniProt Q05940 (whole entry, looked up): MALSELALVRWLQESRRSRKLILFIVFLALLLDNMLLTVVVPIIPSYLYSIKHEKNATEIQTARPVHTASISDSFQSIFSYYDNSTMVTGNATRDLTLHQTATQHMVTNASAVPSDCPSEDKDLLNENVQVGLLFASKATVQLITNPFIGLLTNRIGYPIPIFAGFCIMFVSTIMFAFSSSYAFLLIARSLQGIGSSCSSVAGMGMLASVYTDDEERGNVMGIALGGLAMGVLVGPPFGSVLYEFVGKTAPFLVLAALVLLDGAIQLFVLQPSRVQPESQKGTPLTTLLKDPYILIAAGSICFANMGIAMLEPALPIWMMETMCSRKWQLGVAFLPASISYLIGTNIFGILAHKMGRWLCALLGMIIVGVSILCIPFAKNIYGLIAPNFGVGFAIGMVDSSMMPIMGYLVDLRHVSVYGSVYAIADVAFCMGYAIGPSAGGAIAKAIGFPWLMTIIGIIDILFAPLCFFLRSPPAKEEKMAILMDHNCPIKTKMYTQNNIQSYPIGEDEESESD
Sequence of UniProt P13945 (whole entry, looked up): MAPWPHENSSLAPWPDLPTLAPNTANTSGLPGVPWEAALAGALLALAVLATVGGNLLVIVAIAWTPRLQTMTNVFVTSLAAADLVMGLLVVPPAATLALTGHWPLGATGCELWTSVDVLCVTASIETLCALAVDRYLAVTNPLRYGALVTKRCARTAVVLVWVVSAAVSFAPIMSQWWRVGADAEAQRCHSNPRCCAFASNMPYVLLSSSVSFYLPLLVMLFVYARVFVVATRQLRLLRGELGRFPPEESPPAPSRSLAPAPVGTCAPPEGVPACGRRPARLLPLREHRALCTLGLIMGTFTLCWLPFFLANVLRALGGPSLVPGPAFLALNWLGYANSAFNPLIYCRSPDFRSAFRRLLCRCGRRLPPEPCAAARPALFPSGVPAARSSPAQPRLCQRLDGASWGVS

Series 1
Target: RING finger protein unkempt homolog, zinc fingers 1-6, GST-SBP tag (UNK, Homo sapiens, UniProt Q9C0B0, residues 30-357)
Sequence of UniProt Q9C0B0 (30-357, looked up): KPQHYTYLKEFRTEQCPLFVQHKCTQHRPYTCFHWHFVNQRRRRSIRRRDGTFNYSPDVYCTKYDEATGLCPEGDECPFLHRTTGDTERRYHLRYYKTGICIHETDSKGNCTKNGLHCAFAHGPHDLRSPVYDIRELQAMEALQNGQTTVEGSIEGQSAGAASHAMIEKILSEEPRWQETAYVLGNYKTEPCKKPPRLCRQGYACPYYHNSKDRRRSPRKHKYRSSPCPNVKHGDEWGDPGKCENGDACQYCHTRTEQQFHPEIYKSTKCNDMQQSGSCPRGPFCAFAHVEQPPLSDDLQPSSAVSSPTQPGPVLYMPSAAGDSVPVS
Technique: RNA Bind-n-Seq
Molecule type: RNA
Medium: in vitro
Concentration: not given
Setting: RNA with constant flanks, human and mouse sites, ends assumed
Relative to: input RNA pool
Reading: higher = stronger binding
Constant ends, left off below: GGGAGUUCUACAGUCCGACGAUC … CAACAGAGGAUUGAGCAUCA
| Strand | bound/input enrichment [ratio] |
| --- | --- |
| GAUGCCCCCCUGGGAAGUUCUUAUAUGUGCAACAAAGAGCAGACUGUUUCAGUGUCUGGAGCAUUUCAGAUAAAUACCUUUGAUCUAAGGGUUCAGCCUUUCAAUGUGACACAAGGAAAG | 0.185 |
| GAAGCCAGCUCUACCGAGGACUCACGUGCUACCAGCAUCCCUGGGAGCCCUUUCAACCUAUUUAGUGACCUUGACAAAGCAGAUGACCUGCCCAGUCACCAAAAAAUAUUUGAUCUAAUG | 0.444 |
| UCAAGUAGAUGUUUUUCUGUUAUGUAAGCAAUAAUUUUUCCGUGUCUUAUUGAGUAUGGCUAGCGAUUAUUUAUUACAUGCUAGAUGGGUUCUUUGCAUGUGGGUUCCAUAUAGGUGCAG | 0.578 |
| GUAGAAUUUAUUUUGUCUUUUAUUGAUCACAUUGCUGGAGAUGAGGAUCAUACGGACGGAGUGGUAGCCUGUGCUGCUGGUCUGAUAGGGGACUUGUGUACAGCCUUCGGGAAGGAUGUA | 1.9 |
| AUGCUCGGAUGUAAGAAGCCAAUAGGAAAACCAGCCACUGCAAAACUAUAACAAUAAUGGAGCAGUUGUAGAAAACACAGUUCCAUAGUGACAGUCACAAAGGACUUACUCUGCCACAAA | 2.13 |
| CACUCCUUCCCCAGGGUUUAAGAGAUUGGGGGCAGACAGGGACUUUCCUCUGCCGGCUGCGUGGAGAAGGAAGCGGCUAAAAGGUUUGGGCCGGGGAGUUCCCCAUUCGUUCUCCGGGGA | 0.155 |
| CAUCUUUGCAUUAUAACCACUCUGCUAAAUUCUUGAAGGAGCUGACAUUAUCUAUGGAUGAGCUGGAAGAGAAUUUCCGCAGUAUGUUGAAGAGUGCAGCCACCAAAGUGACCACAGUGU | 0.181 |
| AUUGGCCCCAACUUCCAGCUGGGCUUAAAGGAUGGCAUCAUCCUCUGCGAACUUAUAAACAAGCUACAGCCAGGCUCAGUGAAGAAGGUCAACGAGUCCUCACUGAACUGGCCUCAGUUG | 0.174 |

Series 2
Target: CEP164, C-terminal peptide (human)
Technique: DHFR complementation, deep sequencing
Medium: yeast
Setting: single substitutions, model-inferred values
Relative to: wild type
Reading: higher = weaker binding
Parent: PDZK1, PDZ domain 2 (human); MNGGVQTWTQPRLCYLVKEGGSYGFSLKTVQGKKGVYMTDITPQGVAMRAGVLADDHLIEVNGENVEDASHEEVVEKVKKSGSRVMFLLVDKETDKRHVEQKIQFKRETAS; partner HNRVKVYRF
| Variant | binding free energy change |
| --- | --- |
| K80H | 0.638 kcal/mol |
| G4D | 3.94e-07 kcal/mol |
| D68T | 0.114 kcal/mol |
| K92M | 0.0217 kcal/mol |
| Q31T | 0.0611 kcal/mol |
| K106S | -0.2 kcal/mol |
| T9E | 0.0618 kcal/mol |
| V17G | 0.775 kcal/mol |

Single results of other studies
| SMILES | target | effect on | action | concentration | setting | measurement | value |
| --- | --- | --- | --- | --- | --- | --- | --- |
| C[C@H](c1ccc(F)cc1)N(Cc1ccc(Cl)c(C(=O)O)c1)C(=O)c1cnc2ccccc2c1 | ADRB3 (Homo sapiens, UniProt P13945) | cell-free assay |  | 10 µM |  | inhibition | -5.1% |
| CCN(CCCCOC(=O)c1ccc(OC)c(OC)c1)C(C)Cc1ccc(OC)cc1 (stereo not drawn) | SLC18A2 (Homo sapiens, UniProt Q05940) |  | inhibitor |  | literature data | IC50 | 470 nM |

Some of these lines once more (series 1):
| Strand | bound/input enrichment [ratio] |
| --- | --- |
| UCAAGUAGAUGUUUUUCUGUUAUGUAAGCAAUAAUUUUUCCGUGUCUUAUUGAGUAUGGCUAGCGAUUAUUUAUUACAUGCUAGAUGGGUUCUUUGCAUGUGGGUUCCAUAUAGGUGCAG | 0.578 |
